Results collected from several papers.
Compare with care: the assays were run in different laboratories. Numbers after ± are the reported error.

CC1=CC(C)=[N+]2C1=C(CCCC(=O)NCCCCCC(=O)NCCCCCC(=O)NCCCC[C@H](NC(=O)N[C@@H](CCC(=O)O)C(=O)O)C(=O)O)c1c(C)cc(C)n1[B-]2(F)F  fluorescence lifetime (acetonitrile/water): 6.2 ± 0.1 ns
O=c1[nH]c(=O)n(C2OC(CO)C(O)C2O)cc1-n1nnc2c1CCC1C(CO)C1CC2 (mixture of isomers)  fluorescence lifetime τ2 (frequency-domain fluorometry; methanol): 1.3 ns
COc1cc(OC)cc(C2=C3C(C)=C(I)C(C)=[N+]3[B-](F)(F)n3c(/C=C/c4c[nH]c5ccc([N+](=O)[O-])cc45)c(I)c(C)c32)c1  fluorescence quantum yield (THF; relative to: methylene blue): 0.32
Cc1ccc(-c2ccc(-c3cc4sccc4o3)cn2)nc1  fluorescence lifetime (aqueous HEPES buffer; pH 7.4, zinc-free ligand): 2.31 ns
Nc1ncnc2c1nc(-n1nnc3c1CCC1C(CO)C1CC3)n2C1OC(CO)C(O)C1O (mixture of isomers)  fluorescence lifetime τ3 (frequency-domain fluorometry; methanol): 5.9 ns
CCN(CC)C(=S)c1ccc(-c2c3ccc(=[N+](C)C)cc-3sc3cc4c(cc23)C(C)(C)CCN4C)s1  fluorescence emission maximum (methanol; together with: excitation 532 nm): 626 nm
CC1=CC(C)=[N+]2C1=C(CCCC(=O)NCCCCCC(=O)NCCCC[C@H](NC(=O)N[C@@H](CCC(=O)O)C(=O)O)C(=O)O)c1c(C)cc(C)n1[B-]2(F)F  fluorescence lifetime (acetonitrile/water): 6.1 ± 0.1 ns
NCCC(=O)N1Cc2ccccc2-c2c(nnn2-c2cn(C3OC(CO)C(O)C3O)c(=O)[nH]c2=O)-c2ccccc21 (mixture of isomers)  fluorescence lifetime τ2 (frequency-domain fluorometry; methanol): 2.3 ns
CCOC(=O)c1[nH]c(C)c(/C=C/C2=[N+]3C(=C(c4cc(OC)cc(OC)c4)c4c(C)c(I)c(/C=C/c5c(C)[nH]c(C(=O)OCC)c5C)n4[B-]3(F)F)C(C)=C2I)c1C  fluorescence quantum yield (THF; relative to: methylene blue): 0.07
Nc1nc(-n2nnc3c2CCC2C(CO)C2CC3)nc2c1ncn2C1OC(CO)C(O)C1O (mixture of isomers)  fluorescence lifetime τ3 (frequency-domain fluorometry; methanol): 5.8 ns
COc1cc(OC)cc(C2=C3C(C)=C(I)C(C)=[N+]3[B-](F)(F)n3c(/C=C/c4c[nH]c5ccccc45)c(I)c(C)c32)c1  fluorescence quantum yield (THF; relative to: methylene blue): 0.2
NCCC(=O)N1Cc2ccccc2-c2c(nnn2-c2nc(N)c3ncn(C4OC(CO)C(O)C4O)c3n2)-c2ccccc21 (mixture of isomers)  fluorescence lifetime τ1 (frequency-domain fluorometry; methanol): 0.1 ns
COCCOCCOCCOCCC(=O)NCc1cc(CNC(=O)CCOCCOCCOCCOC)cc(-c2cc3cc4nc(c(-c5ccc(CCC(=O)O)cc5)c5[nH]c(cc6nc(c(OC)c2[nH]3)CC6(C)C)cc5-c2cc(CNC(=O)CCOCCOCCOCCOC)cc(CNC(=O)CCOCCOCCOCCOC)c2)CC4(C)C)c1  fluorescence quantum yield reduction (water; concentration not given; relative to: DMF): 39%
Nc1ncnc2c1nc(-n1nnc3c1CCC1C(CO)C1CC3)n2C1CC(O)C(CO)O1 (mixture of isomers)  fluorescence lifetime τ2 (frequency-domain fluorometry; methanol): 0.9 ns
COc1cc(OC)cc(C2=C3C(C)=C(I)C(/C=C/c4cccs4)=[N+]3[B-](F)(F)n3c(/C=C/c4cccs4)c(I)c(C)c32)c1  fluorescence quantum yield (dichloromethane; relative to: methylene blue): 0.02
COc1ccc(/C=C/c2ccc(-c3ccc(C)cn3)nc2)cc1  fluorescence quantum yield (MeCN; together with: quinine bisulfate reference): 0.28
COc1cc(OC)cc(C2=C3C(C)=C(I)C(C)=[N+]3[B-](F)(F)n3c(/C=C/c4cccs4)c(I)c(C)c32)c1  fluorescence quantum yield (DMSO; relative to: methylene blue): 0.15
CCN(CC)C(=O)c1ccc(-c2c3ccc(=[N+](C)C)cc-3sc3cc4c(cc23)C(C)(C)CCN4C)s1  fluorescence emission maximum (methanol; together with: excitation 532 nm): 626 nm

A few entries again:
COc1cc(OC)cc(C2=C3C(C)=C(I)C(C)=[N+]3[B-](F)(F)n3c(/C=C/c4cccs4)c(I)c(C)c32)c1  fluorescence quantum yield (DMSO; relative to: methylene blue): 0.15
O=c1[nH]c(=O)n(C2OC(CO)C(O)C2O)cc1-n1nnc2c1CCC1C(CO)C1CC2 (mixture of isomers)  fluorescence lifetime τ2 (frequency-domain fluorometry; methanol): 1.3 ns
